Experimental data gathered from unrelated publications.
Parts stem from different laboratories: compare values within a part only.

Series 1 — technique: protein binding microarray; molecule type: double-stranded DNA, one strand shown; sample: in vitro; concentration: not given; baseline: not given; reading: higher = stronger binding; endpoint: E-score
Target: Histone acetyltransferase KAT6A, winged helix 1, GST fusion (KAT6A, Homo sapiens, UniProt Q92794, residues 1-85)
Notes: 8-mer, flanks averaged, mean of 2 arrays, mostly near background
Construct (chain): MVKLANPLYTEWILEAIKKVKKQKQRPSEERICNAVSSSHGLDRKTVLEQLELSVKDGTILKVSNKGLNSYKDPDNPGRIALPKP
ACAAAACT: -0.347
TAACTAAA: -0.0944
CGCAGTGC: 0.297
AAAAAGAT: -0.129
ACTGGCCA: -0.243
AGTTACGC: 0.282
AAGACTAC: -0.0684
AATATAAG: -0.0528

Series 2 — technique: Spec-seq; molecule type: double-stranded DNA, one strand shown; sample: in vitro; concentration: not given; notes: whole probe, mean of replicates; baseline: not given; reading: lower = stronger binding; endpoint: relative binding energy; all sequences stand within: GAGTCGTCTCGTCAGCAC … CCGTAGAGCACTCAGGTC
Target: POU, POU domain (Salpingoeca helianthica)
Residues (chain): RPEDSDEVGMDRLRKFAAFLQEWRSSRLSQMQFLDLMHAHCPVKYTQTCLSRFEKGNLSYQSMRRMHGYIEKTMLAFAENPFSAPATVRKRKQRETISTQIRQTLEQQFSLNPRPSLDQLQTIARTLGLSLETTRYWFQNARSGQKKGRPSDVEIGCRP
GGCATAAT: 0.76 ln ratio
CGCGTAAT: 0.641 ln ratio
ATGCACAA: 1.12 ln ratio
ATTTGGAT: 1.1 ln ratio
ATCTCAAT: 0.838 ln ratio
ATGCCTGA: 1.8 ln ratio
ATCGTCAT: 0.911 ln ratio
TCGGTAAT: 0.523 ln ratio

Other studies, line by line — species: human
COc1ccc(-c2c(Nc3ccccn3)[nH]c3c(C4=CCCCC4)c(-c4ccccc4)nn3c2=O)cc1
terminal elimination rate constant (LC-MS/MS non-compartmental; plasma; oral, 200 mg twice daily, cycle 1): 1.23e-06 s⁻¹

Cc1nn(CCC(=O)NC(C)(C)CN2CCCC(C)C2)c(C)c1C (stereo not drawn)
remaining compound (microsomes or S9; 2 µM, 0.5 h): 51.9%
